Published values gathered from unrelated publications.
Each line is one published result; not all experiments were run side by side. “And” joins repeats or separate records; there may be more than shown. ± gives the spread as reported.
SLC22A1: Solute carrier family 22 member 1 (SLC22A1, Homo sapiens, UniProt O15245)
UniProt O15245, sequence (whole entry, looked up): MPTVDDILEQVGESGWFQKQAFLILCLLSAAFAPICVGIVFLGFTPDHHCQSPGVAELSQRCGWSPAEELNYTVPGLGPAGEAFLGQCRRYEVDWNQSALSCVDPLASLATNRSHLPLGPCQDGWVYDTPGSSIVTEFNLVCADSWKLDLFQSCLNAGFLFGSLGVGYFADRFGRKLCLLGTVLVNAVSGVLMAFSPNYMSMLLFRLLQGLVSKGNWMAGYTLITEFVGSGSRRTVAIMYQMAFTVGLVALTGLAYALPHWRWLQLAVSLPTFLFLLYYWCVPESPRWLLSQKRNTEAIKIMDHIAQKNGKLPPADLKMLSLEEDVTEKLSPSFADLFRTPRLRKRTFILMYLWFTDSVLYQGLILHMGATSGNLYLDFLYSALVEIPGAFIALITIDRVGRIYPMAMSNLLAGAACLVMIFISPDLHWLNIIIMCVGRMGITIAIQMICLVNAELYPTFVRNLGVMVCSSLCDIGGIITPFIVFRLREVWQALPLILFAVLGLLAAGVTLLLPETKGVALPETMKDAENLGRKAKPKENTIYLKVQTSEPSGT
AHR: Aryl hydrocarbon receptor (AHR, Homo sapiens, UniProt P35869)
UniProt P35869, sequence (whole entry, looked up): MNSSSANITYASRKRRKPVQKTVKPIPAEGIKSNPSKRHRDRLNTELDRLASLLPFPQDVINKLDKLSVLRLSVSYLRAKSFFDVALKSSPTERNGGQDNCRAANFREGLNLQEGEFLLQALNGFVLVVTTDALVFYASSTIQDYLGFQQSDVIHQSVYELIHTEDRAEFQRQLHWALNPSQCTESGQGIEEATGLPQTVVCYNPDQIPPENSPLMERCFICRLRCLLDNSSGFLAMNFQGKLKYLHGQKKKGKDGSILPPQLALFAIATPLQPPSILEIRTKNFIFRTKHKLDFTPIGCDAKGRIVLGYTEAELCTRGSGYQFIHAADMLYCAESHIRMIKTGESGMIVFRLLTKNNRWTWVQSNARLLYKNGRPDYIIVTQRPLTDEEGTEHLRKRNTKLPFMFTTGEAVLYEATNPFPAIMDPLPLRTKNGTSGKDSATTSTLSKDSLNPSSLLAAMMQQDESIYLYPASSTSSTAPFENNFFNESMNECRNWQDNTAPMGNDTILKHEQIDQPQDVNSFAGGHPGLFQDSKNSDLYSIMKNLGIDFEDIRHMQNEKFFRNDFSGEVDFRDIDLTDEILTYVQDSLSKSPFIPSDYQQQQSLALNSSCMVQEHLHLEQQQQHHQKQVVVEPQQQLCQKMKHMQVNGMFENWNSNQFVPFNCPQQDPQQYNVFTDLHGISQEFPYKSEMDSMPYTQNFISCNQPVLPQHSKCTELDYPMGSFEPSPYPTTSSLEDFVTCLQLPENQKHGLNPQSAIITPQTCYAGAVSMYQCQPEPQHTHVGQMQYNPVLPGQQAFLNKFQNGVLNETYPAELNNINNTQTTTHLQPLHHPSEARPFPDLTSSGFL
CYP2E1: Cytochrome P450 2E1 (CYP2E1, Homo sapiens, UniProt P05181)
UniProt P05181, sequence (whole entry, looked up): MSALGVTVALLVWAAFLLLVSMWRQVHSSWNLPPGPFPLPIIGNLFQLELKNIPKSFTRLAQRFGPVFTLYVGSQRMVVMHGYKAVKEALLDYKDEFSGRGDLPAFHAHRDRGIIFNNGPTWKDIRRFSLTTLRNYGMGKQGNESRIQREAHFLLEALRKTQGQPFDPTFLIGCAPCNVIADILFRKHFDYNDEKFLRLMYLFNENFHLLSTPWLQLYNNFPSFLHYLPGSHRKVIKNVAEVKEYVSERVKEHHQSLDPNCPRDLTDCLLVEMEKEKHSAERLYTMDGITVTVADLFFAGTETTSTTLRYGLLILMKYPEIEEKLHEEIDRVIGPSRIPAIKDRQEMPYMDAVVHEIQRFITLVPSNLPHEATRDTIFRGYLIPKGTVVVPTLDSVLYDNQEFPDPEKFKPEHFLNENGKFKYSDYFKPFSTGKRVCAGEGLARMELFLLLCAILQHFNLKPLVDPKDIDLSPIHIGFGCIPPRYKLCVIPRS
UniProt Q9Y6L6, sequence (whole entry, looked up): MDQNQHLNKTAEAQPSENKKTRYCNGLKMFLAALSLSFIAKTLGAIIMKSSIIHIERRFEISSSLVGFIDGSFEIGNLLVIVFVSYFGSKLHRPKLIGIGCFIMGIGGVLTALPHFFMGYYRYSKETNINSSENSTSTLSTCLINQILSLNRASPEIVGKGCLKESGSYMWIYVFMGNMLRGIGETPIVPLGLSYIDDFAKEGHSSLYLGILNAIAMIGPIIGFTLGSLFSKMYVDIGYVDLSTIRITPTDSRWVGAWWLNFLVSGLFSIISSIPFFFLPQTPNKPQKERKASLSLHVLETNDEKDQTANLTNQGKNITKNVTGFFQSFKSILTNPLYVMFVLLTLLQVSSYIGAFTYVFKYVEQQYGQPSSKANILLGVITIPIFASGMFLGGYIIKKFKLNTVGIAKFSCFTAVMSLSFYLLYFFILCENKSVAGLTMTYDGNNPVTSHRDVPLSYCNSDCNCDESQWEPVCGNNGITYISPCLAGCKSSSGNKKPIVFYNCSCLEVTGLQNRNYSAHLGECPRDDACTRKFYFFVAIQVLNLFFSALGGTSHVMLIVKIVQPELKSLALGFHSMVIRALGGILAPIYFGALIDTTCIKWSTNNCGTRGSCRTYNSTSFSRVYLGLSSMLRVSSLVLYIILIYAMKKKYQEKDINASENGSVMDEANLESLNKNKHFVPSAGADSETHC
UniProt P08183, sequence (whole entry, looked up): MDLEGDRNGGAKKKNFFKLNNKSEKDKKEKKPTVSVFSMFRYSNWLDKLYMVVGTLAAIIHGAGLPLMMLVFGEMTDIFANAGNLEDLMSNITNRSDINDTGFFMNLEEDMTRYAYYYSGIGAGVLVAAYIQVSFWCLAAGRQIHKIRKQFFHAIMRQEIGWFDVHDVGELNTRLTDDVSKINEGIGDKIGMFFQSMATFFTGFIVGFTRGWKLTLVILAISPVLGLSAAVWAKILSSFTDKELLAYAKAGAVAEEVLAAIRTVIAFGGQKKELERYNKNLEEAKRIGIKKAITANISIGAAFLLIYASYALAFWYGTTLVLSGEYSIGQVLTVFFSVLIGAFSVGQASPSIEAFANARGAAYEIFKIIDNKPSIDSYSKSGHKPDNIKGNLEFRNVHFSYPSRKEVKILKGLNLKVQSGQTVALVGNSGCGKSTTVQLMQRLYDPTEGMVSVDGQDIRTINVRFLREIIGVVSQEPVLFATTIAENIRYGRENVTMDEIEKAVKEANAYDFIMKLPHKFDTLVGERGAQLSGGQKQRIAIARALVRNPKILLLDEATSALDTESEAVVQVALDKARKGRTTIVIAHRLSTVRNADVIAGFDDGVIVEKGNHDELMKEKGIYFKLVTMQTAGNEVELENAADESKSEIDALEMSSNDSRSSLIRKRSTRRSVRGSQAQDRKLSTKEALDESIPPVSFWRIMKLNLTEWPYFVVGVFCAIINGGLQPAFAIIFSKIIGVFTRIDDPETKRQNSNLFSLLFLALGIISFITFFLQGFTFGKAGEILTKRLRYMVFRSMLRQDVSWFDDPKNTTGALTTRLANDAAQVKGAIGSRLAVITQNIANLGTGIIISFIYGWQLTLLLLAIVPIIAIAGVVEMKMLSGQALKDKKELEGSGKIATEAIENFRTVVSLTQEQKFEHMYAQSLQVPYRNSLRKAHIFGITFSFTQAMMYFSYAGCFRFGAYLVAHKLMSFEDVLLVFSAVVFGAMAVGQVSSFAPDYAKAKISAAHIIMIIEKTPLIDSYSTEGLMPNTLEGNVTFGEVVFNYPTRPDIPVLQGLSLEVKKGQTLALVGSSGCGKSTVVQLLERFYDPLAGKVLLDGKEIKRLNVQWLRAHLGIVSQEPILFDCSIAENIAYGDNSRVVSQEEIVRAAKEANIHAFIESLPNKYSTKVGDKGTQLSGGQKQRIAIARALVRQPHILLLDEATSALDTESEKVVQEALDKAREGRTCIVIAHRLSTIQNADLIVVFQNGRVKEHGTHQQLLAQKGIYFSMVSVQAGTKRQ
UniProt P20813, sequence (whole entry, looked up): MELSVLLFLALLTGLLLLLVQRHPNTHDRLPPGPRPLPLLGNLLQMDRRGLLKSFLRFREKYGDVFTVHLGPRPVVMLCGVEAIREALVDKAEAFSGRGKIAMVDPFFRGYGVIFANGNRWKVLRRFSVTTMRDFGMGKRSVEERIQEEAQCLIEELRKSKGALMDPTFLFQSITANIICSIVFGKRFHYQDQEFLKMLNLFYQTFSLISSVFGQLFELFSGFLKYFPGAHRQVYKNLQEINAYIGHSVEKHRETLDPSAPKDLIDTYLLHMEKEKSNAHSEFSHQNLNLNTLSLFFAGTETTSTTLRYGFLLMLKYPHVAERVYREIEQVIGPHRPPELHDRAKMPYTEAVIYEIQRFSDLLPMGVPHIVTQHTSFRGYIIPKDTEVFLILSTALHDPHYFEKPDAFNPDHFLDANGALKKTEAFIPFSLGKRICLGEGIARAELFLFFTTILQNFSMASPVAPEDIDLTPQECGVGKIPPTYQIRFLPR
UniProt P04798, sequence (whole entry, looked up): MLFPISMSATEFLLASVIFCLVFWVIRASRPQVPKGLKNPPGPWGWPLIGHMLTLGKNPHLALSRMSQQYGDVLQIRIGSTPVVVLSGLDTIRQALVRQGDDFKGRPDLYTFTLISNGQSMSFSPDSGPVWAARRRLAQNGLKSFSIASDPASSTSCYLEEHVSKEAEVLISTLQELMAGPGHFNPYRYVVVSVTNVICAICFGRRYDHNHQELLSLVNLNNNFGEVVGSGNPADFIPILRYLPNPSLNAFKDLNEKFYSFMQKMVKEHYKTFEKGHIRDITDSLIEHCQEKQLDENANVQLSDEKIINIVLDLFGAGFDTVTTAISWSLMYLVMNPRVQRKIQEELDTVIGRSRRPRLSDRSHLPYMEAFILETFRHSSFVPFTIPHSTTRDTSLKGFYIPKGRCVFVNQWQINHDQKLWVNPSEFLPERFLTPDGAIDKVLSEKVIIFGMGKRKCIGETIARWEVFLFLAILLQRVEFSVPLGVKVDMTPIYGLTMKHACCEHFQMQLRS

CC1(C)C(/C=C(\Cl)C(F)(F)F)C1C(=O)OC(C#N)c1cccc(Oc2ccccc2)c1 (stereo not drawn) — relative enzyme contribution (human microsomal CES1; IVIVE from expressed enzymes; human, 6 months old; relative to: total hepatic CLint in vivo): 62.6%
CC[C@H]1OC(=O)[C@H](C)[C@@H](O[C@H]2C[C@@](C)(OC)[C@@H](O)[C@H](C)O2)[C@H](C)[C@@H](O[C@@H]2O[C@H](C)C[C@H](N(C)C)[C@H]2O)[C@](C)(O)C[C@@H](C)CN(C)[C@H](C)[C@@H](O)[C@]1(C)O — inhibition (SLC22A1; transport, inhibitor; 50 µM, 10 (unit not given), added: metformin): -2.8%
CC1(C)C(C=C(Cl)Cl)C1C(=O)OC(C#N)c1ccc(F)c(Oc2ccccc2)c1 (stereo not drawn) — relative enzyme contribution (human microsomal CES1; IVIVE from expressed enzymes; human, 6 months old, expressed human CES1; 0.1 µM; relative to: total hepatic CLint in vivo): 61%
Clc1ccccc1-c1ccccc1Cl — maximum activity (AHR; reporter gene, antagonist; AZ-AHR cells; 40 µM, added: TCDD 4.5 nM; relative to: TCDD 4.5 nM): 100%
CC(C)Cn1cnc2c(N)nc3ccccc3c21 — inhibition (Cytochrome P450 1A1 (CYP1A1, Homo sapiens, UniProt P04798); granisetron 7-hydroxylation, inhibitor, LC-MS; HaCaT keratinocytes, benzo[a]pyrene-pretreated; 0.5 µM, 6 h, added: granisetron 1 µM): ~35%
O=C(O)C(F)(F)C(F)(F)C(F)(F)C(F)(F)C(F)(F)C(F)(F)C(F)(F)F — Jmax (Solute carrier organic anion transporter family member 1B1 (SLCO1B1, Homo sapiens, UniProt Q9Y6L6); uptake, substrate; CHO cells stably expressing SLCO1B1; 1 min, 37 °C): 2300 ± 295 pmol/min/mg protein
CC(C)CC(=O)OC[C@H]1O[C@@](C#N)(c2ccc3c(N)ncnn23)[C@H](O)[C@@H]1O — Papp B to A (ATP-dependent translocase ABCB1 (ABCB1, Homo sapiens, UniProt P08183); Caco-2; 9 µM, added: verapamil 100 µM): 3.05 ×10⁻⁶ cm/s
CC[C@H](C)[C@H](NC(=O)[C@H](CCCCN)NC(=O)[C@H](CCC(=O)O)NC(=O)[C@H](CCCCN)NC(=O)[C@H](CO)NC(=O)[C@H](CCCCN)NC(=O)[C@H](CCCNC(=N)N)NC(=O)[C@H](Cc1ccccc1)NC(=O)[C@H](Cc1ccccc1)NC(=O)[C@H](CC(=O)O)NC(=O)CNC(=O)[C@H](CC(C)C)NC(=O)[C@@H](N)CC(C)C)C(=O)NCC(=O)N[C@@H](CCCCN)C(=O)N[C@@H](CCC(=O)O)C(=O)N[C@@H](Cc1ccccc1)C(=O)N[C@@H](CCCCN)C(=O)N[C@@H](CCCNC(=N)N)C(=O)N[C@H](C(=O)N[C@H](C(=O)N[C@@H](CCC(N)=O)C(=O)N[C@@H](CCCNC(=N)N)C(=O)N[C@H](C(=O)N[C@@H](CCCCN)C(=O)N[C@@H](CC(=O)O)C(=O)N[C@@H](Cc1ccccc1)C(=O)N[C@@H](CC(C)C)C(=O)N[C@@H](CCCNC(=N)N)C(=O)N[C@@H](CC(N)=O)C(=O)N[C@@H](CC(C)C)C(=O)N[C@H](C(=O)N1CCC[C@H]1C(=O)N[C@@H](CCCNC(=N)N)C(=O)N[C@H](C(=O)N[C@@H](CCC(=O)O)C(=O)N[C@@H](CO)C(=O)O)[C@@H](C)O)C(C)C)[C@@H](C)CC)C(C)C)[C@@H](C)CC — remaining intact peptide (human neutrophil elastase; LC-MS; 40 µM, 60 min, pH 7.5, 37 °C; relative to: 0 h): 5.53%
CCN(CC)CCCC(C)Nc1ccnc2cc(Cl)ccc12 (stereo not drawn) — inhibition (SLC22A1; transport, inhibitor; transiently transfected cells; 100 µM, 10 (unit not given), added: metformin): 91.5%
COC(=O)c1cccc(C(=O)c2c[nH]c3ccccc23)c1 — activity at 10 µM (AHR; reporter gene, agonist, XRE luciferase; HepG2; 10 µM; relative to: ITE): 4%
CCC(CC)COC(=O)[C@H](C)N[P@](=O)(OC[C@H]1O[C@@](C#N)(c2ccc3c(N)ncnn23)[C@H](O)[C@@H]1O)Oc1ccccc1 — inhibition (SLC22A1; transport, inhibitor; transiently transfected cells; 100 µM, 10 (unit not given), added: metformin): 78.9%
Nc1ccccc1 — remaining activity (CYP2E1; enzyme activity, inhibitor; concentration not given, 30 min, pH 7.4): 5.5%
CC(C)=CC1C(C(=O)OC(C#N)c2cccc(Oc3ccccc3)c2)C1(C)C (stereo not drawn) — enzyme contribution to CLint (human cytosolic CES2; IVIVE from expressed enzymes; human, liver, in vivo scaled; age-specific): 0.18%
COc1cc2nc(N3CCN(C(=O)c4ccco4)CC3)nc(N)c2cc1OC — inhibition (SLC22A1; transport, inhibitor; 100 µM): 89.5%
C=CC1CO1 (stereo not drawn) — Ki (CYP2E1; inhibitor; human liver microsomes): 140 µM
O=S(=O)(NCCNC/C=C/c1ccc(Br)cc1)c1cccc2cnccc12 — dead embryos (PKA; inhibitor; mouse zygotes; 20 µM, injection, hCG, 72 h post, early embryonic development): 0% and 5%
Oc1ccc(-c2ccc(Cl)cc2)c(Cl)c1 — maximum activity (AHR; reporter gene, antagonist; AZ-AHR cells; 25 µM, added: TCDD 4.5 nM; relative to: TCDD 4.5 nM): 63%
CC1(C)[C@H](C=C(Cl)Cl)[C@H]1C(=O)OCc1cccc(Oc2ccccc2)c1 — relative enzyme contribution (human microsomal CES1; IVIVE from expressed enzymes; human, 6 months old, expressed human CES1; 0.1 µM; relative to: total hepatic CLint in vivo): 53.5%
COc1ccc2cc1Oc1ccc(cc1)C[C@H]1c3cc(c(OC)cc3CCN1C)Oc1c(OC)c(OC)cc3c1[C@H](C2)N(C)CC3 — inhibition (SLC22A1; transport, inhibitor; 10 µM, added: Metformin): 69.4%
CC1CO1 (stereo not drawn) — IC50 (CYP2E1; enzyme activity, inhibitor; added: 4-nitrophenol 50 µM): 15000 µM
COc1cc(N2CC[C@@]3(O)C(=O)c4cc(C)c(C)cc4N=C23)ccn1 — IC50 (Cytochrome P450 2B6 (CYP2B6, Homo sapiens, UniProt P20813); inhibitor): < 50 µM

For quick reference, copied from above:
CC1(C)C(C=C(Cl)Cl)C1C(=O)OC(C#N)c1ccc(F)c(Oc2ccccc2)c1 (stereo not drawn) — relative enzyme contribution (human microsomal CES1; IVIVE from expressed enzymes; human, 6 months old, expressed human CES1; 0.1 µM; relative to: total hepatic CLint in vivo): 61%
Clc1ccccc1-c1ccccc1Cl — maximum activity (AHR; reporter gene, antagonist; AZ-AHR cells; 40 µM, added: TCDD 4.5 nM; relative to: TCDD 4.5 nM): 100%
CC(C)Cn1cnc2c(N)nc3ccccc3c21 — inhibition (Cytochrome P450 1A1 (CYP1A1, Homo sapiens, UniProt P04798); granisetron 7-hydroxylation, inhibitor, LC-MS; HaCaT keratinocytes, benzo[a]pyrene-pretreated; 0.5 µM, 6 h, added: granisetron 1 µM): ~35%
